Experimental data pooled from the literature.
Lines come from different studies, so protocols differ. Values joined by “and” are separate records of one study, mostly repeats; a detail may differ. ± gives the spread as reported.
NR4A1: Nuclear receptor subfamily 4 group A member 1 (NR4A1, Homo sapiens, UniProt P22736)
Chain of UniProt P22736 (whole entry, looked up): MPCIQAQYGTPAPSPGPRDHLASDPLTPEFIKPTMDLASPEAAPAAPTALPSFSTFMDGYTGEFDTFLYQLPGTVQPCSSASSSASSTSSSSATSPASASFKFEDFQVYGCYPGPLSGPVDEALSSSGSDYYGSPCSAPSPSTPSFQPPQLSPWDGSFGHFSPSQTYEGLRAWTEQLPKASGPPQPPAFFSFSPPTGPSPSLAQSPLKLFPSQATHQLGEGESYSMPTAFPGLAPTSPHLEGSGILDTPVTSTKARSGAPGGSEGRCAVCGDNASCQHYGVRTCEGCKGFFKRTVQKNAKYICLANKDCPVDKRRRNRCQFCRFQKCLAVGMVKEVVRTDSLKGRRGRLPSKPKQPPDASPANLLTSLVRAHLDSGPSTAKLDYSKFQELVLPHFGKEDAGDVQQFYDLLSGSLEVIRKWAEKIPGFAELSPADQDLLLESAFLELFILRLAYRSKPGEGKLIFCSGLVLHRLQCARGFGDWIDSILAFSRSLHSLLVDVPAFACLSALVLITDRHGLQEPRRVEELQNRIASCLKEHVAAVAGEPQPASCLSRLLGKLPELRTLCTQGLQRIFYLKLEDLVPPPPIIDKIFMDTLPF
Tumor necrosis factor receptor superfamily member 9/Nectin-4: Tumor necrosis factor receptor superfamily member 9/Nectin-4 (Homo sapiens, UniProt Q07011+Q96NY8)
Chain of UniProt Q07011 (whole entry, looked up): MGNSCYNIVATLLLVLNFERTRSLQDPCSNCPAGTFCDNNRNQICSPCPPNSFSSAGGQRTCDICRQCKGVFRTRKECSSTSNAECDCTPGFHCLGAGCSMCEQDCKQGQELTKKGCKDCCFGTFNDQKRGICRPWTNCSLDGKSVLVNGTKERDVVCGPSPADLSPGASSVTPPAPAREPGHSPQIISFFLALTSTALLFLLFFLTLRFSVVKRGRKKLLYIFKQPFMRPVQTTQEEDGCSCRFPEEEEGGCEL
Chain of UniProt Q96NY8 (whole entry, looked up): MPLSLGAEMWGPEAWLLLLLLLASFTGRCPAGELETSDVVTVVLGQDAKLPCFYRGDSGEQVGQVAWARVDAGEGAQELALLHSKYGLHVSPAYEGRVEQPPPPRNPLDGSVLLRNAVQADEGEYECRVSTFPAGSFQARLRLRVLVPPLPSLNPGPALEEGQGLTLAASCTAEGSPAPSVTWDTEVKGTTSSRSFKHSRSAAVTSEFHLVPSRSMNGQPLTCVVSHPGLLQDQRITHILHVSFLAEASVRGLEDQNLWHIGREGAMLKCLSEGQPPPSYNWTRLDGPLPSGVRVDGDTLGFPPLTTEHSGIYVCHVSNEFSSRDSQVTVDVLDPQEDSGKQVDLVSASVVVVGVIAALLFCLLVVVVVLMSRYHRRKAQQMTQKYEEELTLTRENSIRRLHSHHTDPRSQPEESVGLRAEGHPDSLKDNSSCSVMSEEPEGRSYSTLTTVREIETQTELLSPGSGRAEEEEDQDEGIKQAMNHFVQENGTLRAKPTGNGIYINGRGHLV
T1: ssDNA, aptamer; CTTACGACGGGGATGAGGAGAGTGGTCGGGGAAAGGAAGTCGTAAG
Chain of UniProt Q8NER1 (whole entry, looked up): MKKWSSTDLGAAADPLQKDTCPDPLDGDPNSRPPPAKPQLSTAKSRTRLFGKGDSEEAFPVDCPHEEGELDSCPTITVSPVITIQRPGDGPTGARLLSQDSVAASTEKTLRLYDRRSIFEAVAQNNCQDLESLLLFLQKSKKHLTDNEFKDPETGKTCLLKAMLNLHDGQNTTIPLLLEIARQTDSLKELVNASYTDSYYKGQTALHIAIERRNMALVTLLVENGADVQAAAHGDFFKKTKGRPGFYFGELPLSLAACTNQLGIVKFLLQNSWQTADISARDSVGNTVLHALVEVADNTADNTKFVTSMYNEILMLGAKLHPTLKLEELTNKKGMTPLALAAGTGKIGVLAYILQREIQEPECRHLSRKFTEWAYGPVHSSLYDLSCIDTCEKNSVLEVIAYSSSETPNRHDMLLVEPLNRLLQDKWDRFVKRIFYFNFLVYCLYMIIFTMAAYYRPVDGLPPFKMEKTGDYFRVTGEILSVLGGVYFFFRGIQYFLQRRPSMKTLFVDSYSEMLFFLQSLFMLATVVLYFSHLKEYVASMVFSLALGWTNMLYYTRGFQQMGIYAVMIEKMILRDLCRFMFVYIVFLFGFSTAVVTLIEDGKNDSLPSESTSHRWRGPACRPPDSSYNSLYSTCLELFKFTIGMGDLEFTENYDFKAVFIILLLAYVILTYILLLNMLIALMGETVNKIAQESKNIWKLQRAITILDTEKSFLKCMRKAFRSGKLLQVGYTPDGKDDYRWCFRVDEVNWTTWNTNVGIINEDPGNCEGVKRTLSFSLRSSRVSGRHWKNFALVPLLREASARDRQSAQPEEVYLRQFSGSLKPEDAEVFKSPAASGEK
Chain of UniProt O76090 (whole entry, unmodified, looked up): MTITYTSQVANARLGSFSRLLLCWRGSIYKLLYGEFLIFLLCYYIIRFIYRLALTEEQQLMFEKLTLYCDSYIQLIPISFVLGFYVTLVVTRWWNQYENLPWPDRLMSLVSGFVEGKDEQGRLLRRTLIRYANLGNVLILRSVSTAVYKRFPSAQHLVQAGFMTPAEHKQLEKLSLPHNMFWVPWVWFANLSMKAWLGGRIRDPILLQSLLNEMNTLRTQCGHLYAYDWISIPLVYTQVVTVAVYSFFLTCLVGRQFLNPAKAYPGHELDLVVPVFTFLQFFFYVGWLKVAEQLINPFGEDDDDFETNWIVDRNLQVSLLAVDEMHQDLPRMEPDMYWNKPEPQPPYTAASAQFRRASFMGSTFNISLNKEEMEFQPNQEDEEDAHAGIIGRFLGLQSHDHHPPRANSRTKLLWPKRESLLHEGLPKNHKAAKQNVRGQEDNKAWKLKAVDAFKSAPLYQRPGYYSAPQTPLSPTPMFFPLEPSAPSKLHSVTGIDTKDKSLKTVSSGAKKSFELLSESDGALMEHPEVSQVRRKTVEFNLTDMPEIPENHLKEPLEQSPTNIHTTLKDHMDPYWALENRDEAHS
Chain of UniProt Q9NYV8 (whole entry, unmodified, looked up): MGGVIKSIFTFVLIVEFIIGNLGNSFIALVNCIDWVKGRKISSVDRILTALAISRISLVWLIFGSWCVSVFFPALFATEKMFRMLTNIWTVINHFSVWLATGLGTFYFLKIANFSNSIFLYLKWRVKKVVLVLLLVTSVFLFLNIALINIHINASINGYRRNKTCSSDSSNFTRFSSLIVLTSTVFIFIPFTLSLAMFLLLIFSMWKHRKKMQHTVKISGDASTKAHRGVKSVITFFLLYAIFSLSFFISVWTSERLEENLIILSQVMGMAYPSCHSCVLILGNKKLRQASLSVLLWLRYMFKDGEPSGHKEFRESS
Chain of UniProt Q16774 (whole entry, looked up): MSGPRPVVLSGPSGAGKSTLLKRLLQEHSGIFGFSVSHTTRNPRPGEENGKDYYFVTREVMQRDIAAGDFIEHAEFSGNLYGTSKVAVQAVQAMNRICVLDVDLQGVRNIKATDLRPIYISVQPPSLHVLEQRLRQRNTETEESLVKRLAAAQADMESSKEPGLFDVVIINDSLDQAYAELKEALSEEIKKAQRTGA
Chain of UniProt Q64663 (whole entry, unmodified, looked up): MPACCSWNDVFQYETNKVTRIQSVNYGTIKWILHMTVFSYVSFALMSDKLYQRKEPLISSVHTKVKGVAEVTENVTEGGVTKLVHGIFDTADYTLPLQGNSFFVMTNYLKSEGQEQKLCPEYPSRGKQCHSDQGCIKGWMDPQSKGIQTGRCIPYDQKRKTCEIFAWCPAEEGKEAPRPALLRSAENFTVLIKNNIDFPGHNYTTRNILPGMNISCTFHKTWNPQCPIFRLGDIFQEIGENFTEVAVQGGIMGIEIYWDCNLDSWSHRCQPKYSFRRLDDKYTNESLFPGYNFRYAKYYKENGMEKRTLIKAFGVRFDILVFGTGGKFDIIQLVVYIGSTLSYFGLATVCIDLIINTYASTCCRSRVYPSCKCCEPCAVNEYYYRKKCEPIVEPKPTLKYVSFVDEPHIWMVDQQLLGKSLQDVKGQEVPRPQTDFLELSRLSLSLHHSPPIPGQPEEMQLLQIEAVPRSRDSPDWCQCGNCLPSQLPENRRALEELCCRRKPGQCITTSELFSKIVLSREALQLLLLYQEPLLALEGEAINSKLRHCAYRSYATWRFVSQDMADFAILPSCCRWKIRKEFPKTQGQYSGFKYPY
Chain of UniProt O75762 (whole entry, looked up): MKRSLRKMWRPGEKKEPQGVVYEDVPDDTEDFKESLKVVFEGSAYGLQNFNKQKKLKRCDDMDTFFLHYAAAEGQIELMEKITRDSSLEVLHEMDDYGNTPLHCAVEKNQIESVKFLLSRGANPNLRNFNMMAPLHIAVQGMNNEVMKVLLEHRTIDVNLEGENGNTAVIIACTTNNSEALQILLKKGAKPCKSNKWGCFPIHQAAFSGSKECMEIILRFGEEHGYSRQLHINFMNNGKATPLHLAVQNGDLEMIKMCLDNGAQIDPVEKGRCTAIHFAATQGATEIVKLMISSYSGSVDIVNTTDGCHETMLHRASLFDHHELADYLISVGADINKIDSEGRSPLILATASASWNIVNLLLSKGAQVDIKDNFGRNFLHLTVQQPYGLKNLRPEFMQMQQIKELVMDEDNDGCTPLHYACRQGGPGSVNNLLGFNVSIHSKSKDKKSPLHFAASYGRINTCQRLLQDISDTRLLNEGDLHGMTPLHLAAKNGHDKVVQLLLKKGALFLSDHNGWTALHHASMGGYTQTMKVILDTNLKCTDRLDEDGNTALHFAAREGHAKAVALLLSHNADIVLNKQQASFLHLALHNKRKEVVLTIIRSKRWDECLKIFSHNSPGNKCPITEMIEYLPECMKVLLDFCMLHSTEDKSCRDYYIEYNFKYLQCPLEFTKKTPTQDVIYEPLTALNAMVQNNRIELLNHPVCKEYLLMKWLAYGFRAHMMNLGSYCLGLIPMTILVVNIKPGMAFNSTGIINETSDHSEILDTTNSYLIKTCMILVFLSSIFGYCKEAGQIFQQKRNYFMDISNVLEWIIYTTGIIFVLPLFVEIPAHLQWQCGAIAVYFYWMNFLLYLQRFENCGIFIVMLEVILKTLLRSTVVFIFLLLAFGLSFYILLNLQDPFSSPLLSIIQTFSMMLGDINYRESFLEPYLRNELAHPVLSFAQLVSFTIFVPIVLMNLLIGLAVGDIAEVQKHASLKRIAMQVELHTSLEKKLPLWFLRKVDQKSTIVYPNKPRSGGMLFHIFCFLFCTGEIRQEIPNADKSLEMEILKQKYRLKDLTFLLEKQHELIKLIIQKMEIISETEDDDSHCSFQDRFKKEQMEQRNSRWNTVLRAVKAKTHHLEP

O=S(=O)(O)O
reaction velocity (GUK1 (Homo sapiens, UniProt Q16774); enzyme activity, NADH-coupled; 1 mM, added: ATP 4000 µM): 0.146 µM/s and 0.153 µM/s and 0.145 µM/s

Nc1ncnc2c1ncn2[C@@H]1O[C@H](COP(=O)(O)O)[C@@H](O)[C@H]1O
Kd (T1, ssDNA, aptamer; ITC): 90.5 µM

c1ccc(-c2n[nH]cc2-c2ccnc3ccccc23)nc1
log2 fold change (Mitogen-activated protein kinase HOG1 (HOG1, Candida albicans, UniProt Q92207); MIB/MS competition binding; Candida albicans cell lysate; 1 µM; baseline: DMSO, lower = stronger binding): 1.48

Nc1nc2c(ncn2[C@@H]2O[C@@H]3COP(=O)(O)O[C@H]4[C@@H](O)[C@H](n5cnc6c(=O)[nH]c(N)nc65)O[C@@H]4COP(=O)(O)O[C@H]3[C@H]2O)c(=O)[nH]1
-TΔS (Cell cycle histidine kinase CckA, CA domain (Caulobacter vibrioides, UniProt Q9X688); ITC; 12 °C, added: AMPPNP 5 mM): -8 kcal/mol

CC(=O)N[C@H](C(=O)N[C@@H](CC(N)=O)C(=O)N[C@@H](CCCCN)C(=O)N1CCC[C@H]1C(=O)N[C@@H](CC(C)C)C(=O)N1CCC[C@H]1C(=O)N1CCC[C@H]1C(=O)N[C@@H](CC(C)C)C(=O)N1CCC[C@H]1C(=O)N[C@H](C(=O)N[C@@H](C)C(N)=O)C(C)C)C(C)C
wavenumber (High osmolarity signaling protein SHO1, SH3 domain (SHO1, Saccharomyces cerevisiae, UniProt P40073); ligand binding, FTIR spectroscopy, refers to: asymmetric stretch band A; pH 7.0, SHO1 complex, added: 4 mM peptide): 2226.8 ± 0.7 cm⁻¹

O=C(COP(=O)(O)O)[C@@H](O)[C@H](O)[C@H](O)COP(=O)(O)O
minimum concentration, maximal activation (Pyruvate kinase PKM (PKM, Homo sapiens, UniProt P14618); pyruvate kinase activity, activator; MGC-803 cell lysate; without AIM): 252 ± 134 nM

N[C@@H](Cc1c[nH]c2ccccc12)C(=O)O
binding stoichiometry (Transcription attenuation protein MtrB (mtrB, Halalkalibacterium halodurans, UniProt Q9KCC6); isothermal titration calorimetry; concentration not given, 25 °C, site 1 two-site model): 0.7 ± 0.1

Nc1ccc(C(=O)O)cc1
current density (BEST1, with wild-type BEST1 (Homo sapiens, UniProt O76090, A243T); whole-cell patch clamp; HEK293 co-expressing WT and A243T mutant; concentration not given, membrane potential -80 mV): -19.7 pA/pF and -23.1 pA/pF and -16.8 pA/pF and -25.9 pA/pF and -6.83 pA/pF and -3.73 pA/pF and -21.3 pA/pF

Cc1ncccc1OC[C@H]1CN(CCN2CCc3ccccc32)CCO1
inhibition (DRD4 (Homo sapiens, UniProt P21917); radioligand binding; concentration not given, added: [3H]N-methylspiperone): 45.4%

Oc1ccc(/C=C/c2cc(O)cc(O)c2)cc1
ΔG of binding (O-methyltransferase (Sorghum bicolor, UniProt A0A1B6PFV1); concentration not given, added: MTA+): -9.35 kcal/mol

COc1cc(CNC(=O)CCCC/C=C/C(C)C)ccc1O
calcium response (TRPV1 (Homo sapiens, UniProt Q8NER1); channel activation, FLIPR calcium; HEK293T; 20 µM; higher = more activation): 35.3 a.u. and 39.3 a.u. and 45 a.u. and 24.6 a.u.

Cc1cc(NC(=O)C=Cc2ccccc2)cc(-c2ccnc(N3CCC(CO)CC3)c2)c1
binding response (NR4A1; SPR; 10.0 µM): 85.7 RU

O=S(=O)(O)C1CCNCC1
normalised MST signal (SLC6A6 (Homo sapiens, UniProt P31641, Y138A); binding, microscale thermophoresis; 62.5 µM, room temperature, added: 50 nM labelled protein; higher = more binding): 0.0316

CCCC[C@@H]1NC(=O)[C@H](Cc2ccc(O)cc2)NC(=O)[C@@H]2CCCN2C(=O)[C@H](CC(=O)O)NC(=O)[C@H](C)NC(=O)[C@H](Cc2ccccc2)NC(=O)[C@@H]2CSCCC(=O)N3CN(CN(C3)C(=O)CCSC[C@@H](C(=O)N[C@@H](C)C(N)=O)NC1=O)C(=O)CCSC[C@H](NC(=O)[C@H](C)NC(C)=O)C(=O)N[C@@H]([C@@H](C)CC)C(=O)N[C@@H](CCC(=O)O)C(=O)N[C@@H](CCC(=O)O)C(=O)N[C@H](CCCCNC(=O)CCc1cn(CCOCCOCCOCCOCCOCCC(=O)N[C@H]3CSCCC(=O)N4CN5CN(C4)C(=O)CCSC[C@H](NC(=O)[C@@H](CC(=O)O)NC(=O)[C@H](Cc4cccc6ccccc46)NC(=O)[C@@H]4CCCN4C3=O)C(=O)N[C@@H](CCSC)C(=O)N[C@@H](CCCCNC(=N)N)C(=O)N[C@@H](CC(=O)O)C(=O)N[C@@H](Cc3c[nH]c4ccccc34)C(=O)N[C@@H](CO)C(=O)N[C@@H]([C@@H](C)O)C(=O)N3CCC[C@H]3C(=O)N3C[C@H](O)C[C@H]3C(=O)N[C@@H](Cc3c[nH]c4ccccc34)C(=O)N[C@H](C(N)=O)CSCCC5=O)nn1)C(=O)N[C@@H](CCC(N)=O)C(=O)N[C@@H](Cc1ccc(O)cc1)C(=O)N2
Emax (Tumor necrosis factor receptor superfamily member 9/Nectin-4; reporter gene, agonist; HT-1376 coculture with reporter cells; baseline: background): 28 fold

Nc1nc2c(ncn2[C@@H]2O[C@H](COP(=O)(O)OP(=O)(O)OP(=O)(O)O)[C@@H](O)[C@H]2O)c(=O)[nH]1
nucleotide addition rate (DNA-directed RNA polymerase subunit beta' / DNA-directed RNA polymerase subunit beta (rpoC/rpoB, Escherichia coli, UniProt P0A8T7+P0A8V2); RNA extension, rapid quench-flow; Escherichia coli, elongation complex, 6-MI template; 200 µM, 25 °C, fast complex fraction): 34 ± 2 s⁻¹

Cc1cc2c(cc1N1C(=O)c3cccc4c(Cl)ccc(c34)C1=O)n(C)c(=O)n2C
thermal shift (Protein polybromo-1, bromodomain 5 (PBRM1, Homo sapiens, UniProt Q86U86); binding, thermal shift; 10 µM; higher = stronger binding): -0.1 °C

C#CCCOC(=O)[C@]1(C)C=C(C(=O)OC(C)(C)C)C(=O)CC1
fraction bound (MAPK8 (Homo sapiens, UniProt P45983); D-peptide binding, inhibitor, FP peptide displacement; 1.562 µM; lower is stronger displacement): 0.788

Nc1ncnc2c1ncn2[C@@H]1O[C@H](COP(=O)(O)OP(=O)(O)OP(=O)(O)O)[C@@H](O)[C@H]1O
Km (Hexokinase HKDC1 (Homo sapiens, UniProt Q2TB90, T58M); substrate, G6PDH-coupled; pH 8, 25 °C): 650 ± 30 µM

Nc1ncnc2c1ncn2[C@@H]1O[C@H](COP(=O)(O)OP(=O)(O)OP(=O)(O)O)[C@@H](O)[C@H]1O
Hill slope (P2X purinoceptor 2 (P2RX2, Homo sapiens, UniProt Q9UBL9, D148K/E146K/L150K/M149R); ion current, agonist, two-electrode voltage clamp; Xenopus oocytes): 1.45

CC(C)c1c(O)ccc2c1CC[C@H]1C(C)(C)CCC[C@]21C
activity score (human iPSC-derived cardiomyocytes; MyBP-C/MYH ratio, plate-normalised SD score; concentration not given, primary screen; direction not given): 8.4

CCCC[C@@H]1NC(=O)[C@H](Cc2ccc(O)cc2)NC(=O)[C@@H]2CCCN2C(=O)[C@H](CC(=O)O)NC(=O)[C@H](C)NC(=O)[C@H](Cc2ccccc2)NC(=O)[C@@H]2CSCCC(=O)N3CN(CN(C3)C(=O)CCSCCC(=O)N[C@@H](CC(C)(C)C)C(=O)N3CCC[C@H]3C(=O)N[C@@H](CCC(=O)O)C(=O)N[C@H](CCCCNC(=O)CCc3cn(CCOCCOCCOCCN(CCOCCOCCOCCC(=O)N[C@H]4CSCCC(=O)N5CN6CN(C5)C(=O)CCSC[C@H](NC(=O)[C@@H](CC(=O)O)NC(=O)[C@H](Cc5cccc7ccccc57)NC(=O)[C@@H]5CCCN5C4=O)C(=O)N[C@@H](CCSC)C(=O)N[C@@H](CCCCNC(=N)N)C(=O)N[C@@H](CC(=O)O)C(=O)N[C@@H](Cc4c[nH]c5ccccc45)C(=O)N[C@@H](CO)C(=O)N[C@@H]([C@@H](C)O)C(=O)N4CCC[C@H]4C(=O)N4C[C@H](O)C[C@H]4C(=O)N[C@@H](Cc4c[nH]c5ccccc45)C(=O)N[C@H](C(N)=O)CSCCC6=O)CCOCCOCCOCCn4cc(CCC(=O)NCCCC[C@H]5NC(=O)[C@H](CCC(=O)O)NC(=O)[C@@H]6CCCN6C(=O)[C@H](CC(C)(C)C)NC(=O)CCSCCC(=O)N6CN7CN(C6)C(=O)CCSC[C@H](NC(=O)[C@H](Cc6ccc(O)cc6)NC(=O)[C@@H]6CCCN6C5=O)C(=O)N[C@@H](Cc5ccccc5)C(=O)N[C@@H](C)C(=O)N[C@@H](CC(=O)O)C(=O)N5CCC[C@H]5C(=O)N[C@@H](Cc5ccc(O)cc5)C(=O)N[C@@H](CCCC)C(=O)NCCSCCC7=O)nn4)nn3)C(=O)N3CCC[C@H]3C(=O)N[C@@H](Cc3ccc(O)cc3)C(=O)N2)C(=O)CCSCCNC1=O
Emax (Tumor necrosis factor receptor superfamily member 9/Nectin-4; reporter gene, agonist; HT-1376 coculture with reporter cells; baseline: background): 71 fold

CCCCCCCC(=O)c1cc(OC)c(OC)c(OC)c1CC(=O)OCC
activation (NR4A1; reporter gene, Gal4 hybrid reporter; 10 µM; baseline: vehicle): 0.84 fold

[Ca]
potentiation (TRPA1 (Homo sapiens, UniProt O75762); ion current, two-electrode voltage clamp; Xenopus oocytes; concentration not given, +80 mV, added: extracellular Ca2+; baseline: current before Ca2+ addition): 4.84 fold change and 1.51 fold change and 3.46 fold change and 2.91 fold change and 2.08 fold change

CC1(C)CC2(C)OC(=O)NC2(C)c2ccccc21 (stereo not shown)
log fold enrichment (ATP-dependent RNA helicase DDX1 (Homo sapiens, UniProt Q92499); binding, affinity selection mass spectrometry; baseline: other proteins in batch): 0.0133

O=c1nc(SCc2cc(F)cc(C(F)(F)F)c2)nc(SCc2ccc3nc(Cl)ccc3c2)[nH]1
linear DNA (TOP2A (Homo sapiens, UniProt P11388); DNA cleavage; 125 µM, replicate 1): 2.76%

Nc1ncnc2c1ncn2[C@@H]1O[C@H](COP(=O)(O)OP(=O)(O)OP(=O)(O)O)[C@@H](O)[C@H]1O
normalized current (P2X purinoceptor 7 (P2rx7, Rattus norvegicus, UniProt Q64663, I214G); ion current, agonist, two-electrode voltage clamp; Xenopus laevis oocytes; 900 µM; baseline: highest concentration response): 0.918 and 1 and 0.9

O=C(O)c1ccc(Nc2ncc3c(n2)-c2ccc(Cl)cc2C(c2c(F)cccc2F)=NC3)cc1
remaining activity (PrKX(h); kinase activity; 1 µM): 99%

O=C(O)c1ccccc1Nc1cccc(C(F)(F)F)c1
ΔBRET (TAS2R14 (Homo sapiens, UniProt Q9NYV8); G-protein dissociation, TRUPATH gustducin BRET; 30 µM, wild-type receptor, unit not given; baseline: vehicle): -0.0246 and -0.0365 and -0.0367 and -0.0465 and -0.0432 and -0.0683 and -0.0347

Cn1cc(-c2ccc(-c3cncc(Cl)c3N3CCC4(CCNC4=O)CC3)cc2)cn1
log2 fold change (COLO 205; gene expression, microarray, refers to: DDIT4 mRNA; concentration not given, 2 h; baseline: untreated cells): 2.22

COC(=O)[C@H]1[C@H]2C[C@@H]3c4[nH]c5cc(OC)ccc5c4CCN3C[C@H]2C[C@@H](OC(=O)c2cc(OC)c(OC)c(OC)c2)[C@@H]1OC
activity score (human iPSC-derived cardiomyocytes; MyBP-C/MYH ratio, plate-normalised SD score; concentration not given, primary screen; direction not given): 3

O=c1cc(-c2ccc([N+](=O)[O-])cc2)[nH]c2c(-c3ccc(Cl)cc3)c(Cc3ccccc3)nn12
kon (Sodium channel protein type 8 subunit alpha, C-terminal domain (SCN8A, Homo sapiens, UniProt Q9UQD0); binder, SPR): 4210 ± 24 M⁻¹ s⁻¹
